Measurements pooled from the literature.
Compare with care: the assays were run in different laboratories. ± marks the error that the study gave.
cyp121: Mycocyclosin synthase (cyp121, Mycobacterium tuberculosis, UniProt P9WPP7)
KCNH2: Voltage-gated inwardly rectifying potassium channel KCNH2 (KCNH2, Homo sapiens, UniProt Q12809)

By UniProt entry, the sequences of proteins in these tests, tags left out. Residues count along the entry.
UniProt P9WPP7, whole entry: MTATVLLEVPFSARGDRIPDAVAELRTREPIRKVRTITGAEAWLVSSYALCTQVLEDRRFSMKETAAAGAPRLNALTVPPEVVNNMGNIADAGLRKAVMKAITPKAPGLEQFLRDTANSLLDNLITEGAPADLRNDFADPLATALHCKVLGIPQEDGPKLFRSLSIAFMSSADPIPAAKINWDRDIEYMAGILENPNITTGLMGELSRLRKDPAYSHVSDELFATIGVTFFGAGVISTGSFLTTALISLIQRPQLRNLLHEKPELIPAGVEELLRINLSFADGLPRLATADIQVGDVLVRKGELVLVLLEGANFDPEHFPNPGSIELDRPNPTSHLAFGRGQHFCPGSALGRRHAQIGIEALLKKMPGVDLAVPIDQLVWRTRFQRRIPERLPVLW
UniProt Q12809, whole entry: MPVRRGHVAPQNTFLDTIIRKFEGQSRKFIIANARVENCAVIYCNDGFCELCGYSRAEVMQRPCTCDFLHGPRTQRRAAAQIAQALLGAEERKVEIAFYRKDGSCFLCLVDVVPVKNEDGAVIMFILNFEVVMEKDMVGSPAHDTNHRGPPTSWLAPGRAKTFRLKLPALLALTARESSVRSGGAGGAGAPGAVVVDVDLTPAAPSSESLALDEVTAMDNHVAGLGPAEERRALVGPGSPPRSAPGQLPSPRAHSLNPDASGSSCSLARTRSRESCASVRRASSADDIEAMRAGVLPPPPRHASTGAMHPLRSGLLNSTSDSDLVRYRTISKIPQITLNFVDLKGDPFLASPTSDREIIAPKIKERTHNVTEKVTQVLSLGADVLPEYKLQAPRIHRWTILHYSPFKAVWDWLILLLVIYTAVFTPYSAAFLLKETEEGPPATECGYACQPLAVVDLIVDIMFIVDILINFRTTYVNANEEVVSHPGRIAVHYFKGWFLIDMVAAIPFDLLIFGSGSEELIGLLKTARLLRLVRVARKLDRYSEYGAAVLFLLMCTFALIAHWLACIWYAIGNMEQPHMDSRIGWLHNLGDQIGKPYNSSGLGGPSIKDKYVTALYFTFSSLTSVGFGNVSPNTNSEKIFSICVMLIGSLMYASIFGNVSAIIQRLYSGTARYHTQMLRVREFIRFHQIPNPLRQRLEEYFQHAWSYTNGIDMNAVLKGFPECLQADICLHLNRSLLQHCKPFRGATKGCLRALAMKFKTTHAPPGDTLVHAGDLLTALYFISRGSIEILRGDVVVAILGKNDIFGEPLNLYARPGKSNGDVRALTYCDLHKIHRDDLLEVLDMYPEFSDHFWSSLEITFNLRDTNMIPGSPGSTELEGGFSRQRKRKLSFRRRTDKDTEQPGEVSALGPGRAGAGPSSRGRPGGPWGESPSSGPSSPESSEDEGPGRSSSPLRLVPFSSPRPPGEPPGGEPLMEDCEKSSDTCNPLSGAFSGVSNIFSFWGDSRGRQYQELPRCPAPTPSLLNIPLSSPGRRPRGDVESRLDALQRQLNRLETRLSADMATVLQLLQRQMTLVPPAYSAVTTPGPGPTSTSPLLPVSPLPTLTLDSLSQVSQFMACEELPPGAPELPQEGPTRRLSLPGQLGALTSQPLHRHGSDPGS
UniProt P08684, whole entry: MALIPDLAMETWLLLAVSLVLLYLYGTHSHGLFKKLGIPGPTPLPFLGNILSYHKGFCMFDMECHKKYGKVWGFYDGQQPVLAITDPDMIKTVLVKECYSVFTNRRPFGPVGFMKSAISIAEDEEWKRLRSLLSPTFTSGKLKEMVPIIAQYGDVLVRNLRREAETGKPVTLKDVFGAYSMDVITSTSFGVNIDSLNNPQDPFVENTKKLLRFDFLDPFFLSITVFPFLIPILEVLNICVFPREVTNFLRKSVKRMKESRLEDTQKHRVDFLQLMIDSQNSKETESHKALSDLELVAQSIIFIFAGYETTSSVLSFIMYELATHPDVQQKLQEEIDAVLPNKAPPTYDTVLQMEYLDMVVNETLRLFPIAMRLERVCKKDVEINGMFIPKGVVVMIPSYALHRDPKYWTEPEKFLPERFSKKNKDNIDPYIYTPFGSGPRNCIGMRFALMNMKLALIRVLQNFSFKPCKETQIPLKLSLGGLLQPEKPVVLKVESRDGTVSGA
UniProt P30561, 10-848 limits assumed: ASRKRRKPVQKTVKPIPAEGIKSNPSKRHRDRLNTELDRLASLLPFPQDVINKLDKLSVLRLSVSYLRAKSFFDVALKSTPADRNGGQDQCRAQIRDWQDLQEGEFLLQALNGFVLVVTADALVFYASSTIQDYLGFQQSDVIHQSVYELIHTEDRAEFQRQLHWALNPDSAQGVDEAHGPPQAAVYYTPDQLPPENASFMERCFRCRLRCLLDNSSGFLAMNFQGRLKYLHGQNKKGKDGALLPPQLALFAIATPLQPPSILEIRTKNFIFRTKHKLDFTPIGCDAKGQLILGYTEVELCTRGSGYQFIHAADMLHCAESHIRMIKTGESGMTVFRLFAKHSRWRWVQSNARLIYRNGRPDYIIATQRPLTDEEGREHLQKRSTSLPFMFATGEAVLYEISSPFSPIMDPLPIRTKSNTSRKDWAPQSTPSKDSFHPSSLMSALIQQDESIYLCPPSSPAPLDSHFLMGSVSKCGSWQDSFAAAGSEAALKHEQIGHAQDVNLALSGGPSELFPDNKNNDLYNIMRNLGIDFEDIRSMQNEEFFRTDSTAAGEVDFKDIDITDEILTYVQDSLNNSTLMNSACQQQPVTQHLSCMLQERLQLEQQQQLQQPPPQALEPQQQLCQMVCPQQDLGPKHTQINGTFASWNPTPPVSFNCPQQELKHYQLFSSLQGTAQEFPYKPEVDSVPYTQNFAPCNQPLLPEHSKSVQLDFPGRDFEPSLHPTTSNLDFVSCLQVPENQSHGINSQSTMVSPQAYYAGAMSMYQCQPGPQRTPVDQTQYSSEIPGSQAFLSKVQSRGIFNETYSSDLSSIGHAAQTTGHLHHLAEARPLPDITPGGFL
UniProt P35353, 24-415 limits assumed: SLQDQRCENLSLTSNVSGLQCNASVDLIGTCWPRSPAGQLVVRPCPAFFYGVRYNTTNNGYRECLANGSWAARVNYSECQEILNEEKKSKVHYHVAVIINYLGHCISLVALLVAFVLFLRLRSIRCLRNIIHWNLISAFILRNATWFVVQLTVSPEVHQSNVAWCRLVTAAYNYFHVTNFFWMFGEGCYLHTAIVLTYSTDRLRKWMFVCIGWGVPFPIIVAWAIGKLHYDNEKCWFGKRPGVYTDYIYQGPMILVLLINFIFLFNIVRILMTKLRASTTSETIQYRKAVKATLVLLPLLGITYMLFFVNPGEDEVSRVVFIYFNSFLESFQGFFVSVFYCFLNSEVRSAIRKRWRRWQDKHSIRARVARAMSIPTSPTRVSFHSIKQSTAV
UniProt P11712, whole entry: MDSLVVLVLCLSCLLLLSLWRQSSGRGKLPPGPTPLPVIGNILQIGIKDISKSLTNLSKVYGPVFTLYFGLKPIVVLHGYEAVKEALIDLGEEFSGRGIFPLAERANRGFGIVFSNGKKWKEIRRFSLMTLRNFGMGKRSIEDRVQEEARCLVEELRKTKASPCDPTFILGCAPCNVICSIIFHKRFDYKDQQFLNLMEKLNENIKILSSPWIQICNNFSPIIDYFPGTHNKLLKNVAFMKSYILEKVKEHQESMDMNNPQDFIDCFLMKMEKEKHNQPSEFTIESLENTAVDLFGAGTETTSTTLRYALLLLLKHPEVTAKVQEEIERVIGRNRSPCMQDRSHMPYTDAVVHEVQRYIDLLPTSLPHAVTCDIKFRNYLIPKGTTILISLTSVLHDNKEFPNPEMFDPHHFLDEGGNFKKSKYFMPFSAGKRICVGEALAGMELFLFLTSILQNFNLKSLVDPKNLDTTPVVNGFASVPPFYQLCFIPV
UniProt P21447, whole entry N83Q/N87Q/N90Q: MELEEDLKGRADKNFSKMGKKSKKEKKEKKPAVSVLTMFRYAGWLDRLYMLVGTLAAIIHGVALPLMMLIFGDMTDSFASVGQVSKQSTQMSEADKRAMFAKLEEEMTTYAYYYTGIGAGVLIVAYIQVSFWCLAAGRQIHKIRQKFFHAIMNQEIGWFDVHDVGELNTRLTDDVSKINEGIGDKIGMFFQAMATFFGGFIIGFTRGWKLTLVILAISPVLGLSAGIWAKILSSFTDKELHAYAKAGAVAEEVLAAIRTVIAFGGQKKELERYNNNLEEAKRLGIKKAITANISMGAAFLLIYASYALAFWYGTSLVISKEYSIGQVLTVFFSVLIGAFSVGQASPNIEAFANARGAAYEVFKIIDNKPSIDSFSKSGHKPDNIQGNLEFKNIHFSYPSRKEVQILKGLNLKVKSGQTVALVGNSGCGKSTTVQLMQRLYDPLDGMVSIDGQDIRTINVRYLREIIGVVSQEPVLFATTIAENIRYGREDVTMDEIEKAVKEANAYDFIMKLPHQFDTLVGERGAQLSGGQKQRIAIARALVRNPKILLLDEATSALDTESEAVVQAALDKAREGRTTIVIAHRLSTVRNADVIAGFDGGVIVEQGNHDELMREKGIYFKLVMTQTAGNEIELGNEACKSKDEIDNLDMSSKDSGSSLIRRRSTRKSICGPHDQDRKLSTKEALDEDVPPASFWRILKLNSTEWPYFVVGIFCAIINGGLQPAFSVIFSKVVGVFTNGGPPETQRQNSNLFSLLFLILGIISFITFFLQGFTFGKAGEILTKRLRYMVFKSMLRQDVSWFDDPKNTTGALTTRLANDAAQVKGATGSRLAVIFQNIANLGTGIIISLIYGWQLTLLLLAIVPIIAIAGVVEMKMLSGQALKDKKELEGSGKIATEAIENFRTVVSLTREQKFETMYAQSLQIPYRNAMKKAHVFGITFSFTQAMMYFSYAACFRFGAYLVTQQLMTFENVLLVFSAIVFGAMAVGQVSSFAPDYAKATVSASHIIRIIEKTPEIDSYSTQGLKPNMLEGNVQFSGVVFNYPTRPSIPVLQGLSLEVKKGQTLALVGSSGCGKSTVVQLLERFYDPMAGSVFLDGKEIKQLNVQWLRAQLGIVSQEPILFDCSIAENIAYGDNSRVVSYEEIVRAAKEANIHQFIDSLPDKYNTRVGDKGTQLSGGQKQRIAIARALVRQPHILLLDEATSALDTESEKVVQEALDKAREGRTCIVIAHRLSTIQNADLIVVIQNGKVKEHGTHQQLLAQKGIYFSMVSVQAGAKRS
UniProt P35869, whole entry, looked up: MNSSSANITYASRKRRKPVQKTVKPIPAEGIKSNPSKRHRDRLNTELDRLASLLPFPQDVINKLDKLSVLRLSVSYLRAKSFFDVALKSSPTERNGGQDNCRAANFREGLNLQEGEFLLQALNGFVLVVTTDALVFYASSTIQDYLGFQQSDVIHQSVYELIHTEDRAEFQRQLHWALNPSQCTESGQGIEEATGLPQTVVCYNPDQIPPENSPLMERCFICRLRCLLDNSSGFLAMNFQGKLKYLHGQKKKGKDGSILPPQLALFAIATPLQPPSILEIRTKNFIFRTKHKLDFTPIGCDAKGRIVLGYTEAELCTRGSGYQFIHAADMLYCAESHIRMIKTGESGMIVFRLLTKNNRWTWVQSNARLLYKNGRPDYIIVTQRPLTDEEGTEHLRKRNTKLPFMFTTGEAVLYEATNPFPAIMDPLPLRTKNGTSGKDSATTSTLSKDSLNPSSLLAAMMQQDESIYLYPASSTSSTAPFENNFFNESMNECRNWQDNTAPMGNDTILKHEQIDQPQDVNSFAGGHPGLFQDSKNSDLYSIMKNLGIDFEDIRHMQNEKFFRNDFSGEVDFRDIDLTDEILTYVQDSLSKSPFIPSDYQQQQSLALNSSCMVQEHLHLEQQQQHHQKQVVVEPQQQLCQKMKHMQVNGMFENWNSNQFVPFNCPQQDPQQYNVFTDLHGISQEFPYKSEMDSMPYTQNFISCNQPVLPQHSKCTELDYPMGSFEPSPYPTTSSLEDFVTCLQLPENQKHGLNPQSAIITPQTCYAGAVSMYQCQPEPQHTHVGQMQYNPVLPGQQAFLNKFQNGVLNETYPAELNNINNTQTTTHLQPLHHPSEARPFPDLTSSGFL

Compound	target	assay	test system	setting	quantity	value
c1cn(Cc2ccc(-c3ccc4[nH]ccc4c3)cc2)cn1	cyp121	binding			Kd	2400 ± 190 nM
CCOc1ccc2cc(-c3nn(CC4CCNCC4)c4ncnc(N)c34)ccc2n1	KCNH2	ion transport, inhibitor, thallium flux			EC50	10000 nM
Cc1nc2c[nH]c(/C=C/C=C/c3ccc(N(C)C)cc3)cn-2c1=O	PA-E2 fibrils			concentration not given	chemiluminescence signal half-life	42 min
CCOc1ccc2cc(-c3nn(CC4(O)CN(C)C4)c4ncnc(N)c34)ccc2c1	KCNH2	ion transport, inhibitor, thallium flux			EC50	11000 nM
COc1cccc2c(N3CCC(CCP(=O)(O)O)CC3)ncnc12	KCNH2			25 µM	hERG inhibition	no inhibition
CC=C(C)C(=O)OCCCc1cc2c(c(OC)c1OC)OCO2	Cytochrome P450 3A4 (CYP3A4, Homo sapiens, UniProt P08684)	enzyme activity, inhibitor, fluorescence		added: dibenzyl fluorescein substrate	IC50	1600 nM
CC(C)(c1ccc(-c2ccc(F)cc2)cc1)n1ccnc1	cyp121	binding			Kd	8900 ± 540 nM
O=c1c(-c2c[nH]c3ccccc23)nccc2c1[nH]c1ccccc12	Aryl hydrocarbon receptor (Ahr, Mus musculus, UniProt P30561)	reporter gene, activator	mouse H1L7.5c3	6 h	EC50	7.1 nM
COCCN(CCOC)c1nc(C)nc2c(-c3c(OC)cc([76Br])cc3OC)c(C)nn12	Corticotropin-releasing factor receptor 1 (Rattus norvegicus, UniProt P35353)		rat, frontal cortex	intravenous, 60 min	tissue uptake	0.127 %ID/g
COc1ccc(S(=O)(=O)N2CCCN(CC(=O)Nc3ccccc3OC)CC2)cc1	Cytochrome P450 2C9 (CYP2C9, Homo sapiens, UniProt P11712)	enzyme activity, inhibitor			IC50	2000 nM
Clc1cccc(-c2c(Cl)c(Cl)cc(Cl)c2Cl)c1Cl	ATP-dependent translocase ABCB1 (Abcb1a, Mus musculus, UniProt P21447, N83Q/N87Q/N90Q)	verapamil-stimulated ATPase activity, inhibitor	purified protein	added: verapamil 100 µM	IC50	12500 nM
COc1cccc(C(=O)c2n[nH]c3ccccc23)c1	Aryl hydrocarbon receptor (AHR, Homo sapiens, UniProt P35869)	reporter gene, agonist	HepG2 transfected XRE-luciferase	4.5 h	EC50	2760 nM

Repeated from above:
Compound	target	assay	test system	setting	quantity	value
COCCN(CCOC)c1nc(C)nc2c(-c3c(OC)cc([76Br])cc3OC)c(C)nn12	Corticotropin-releasing factor receptor 1 (Rattus norvegicus, UniProt P35353)		rat, frontal cortex	intravenous, 60 min	tissue uptake	0.127 %ID/g
